Results from different studies.
Compare with care: the assays were run in different laboratories. Values joined by “and” are separate records of one study, mostly repeats; a detail may differ. Square brackets hold non-standard residues; d marks the D form. Ends that are not written are not given here.
B1: UGT1A9 (Homo sapiens, UniProt O60656); chain GKLLVVPMDGSHWFTMRSVVEKLILRGHEVVVVMPEVSWQLGRSLNCTVKTYSTSYTLEDLDREFKAFAHAQWKAQVRSIYSLLMGSYNDIFDLFFSNCRSLFKDKKLVEYLKESSFDAVFLDPFDNCGLIVAKYFSLPSVVFARGILCHYLEEGAQCPAPLSYVPRILLGFSDAMTFKERVRNHIMHLEEHLLCHRFFKNALEIASEILQTPVTEYDLYSHTSIWLLRTDFVLDYPKPVMPNMIFIGGINCHQGKPLPMEFEAYINASGEHGIVVFSLGSMVSEIPEKKAMAIADALGKIPQTVLWRYTGTRPSNLANNTILVKWLPQNDLLGHPMTRAFITHAGSHGVYESICNGVPMVMMPLFGDQMDNAKRMETKGAGVTLNVLEMTSEDLENALKAVINDKSYKENIMRLSSLHKDRPVEPLDLAVFWVEFVMRHKGAPHLRPAAHDLTWYQYHSLDVIGFLLAVVLTVAFITFKCCAYGYRKCLGKKGRVKKAHKSKTH
B2: BAK1 26-225 T52F (Arabidopsis thaliana, UniProt Q94F62); sequence looked up; chain NAEGDALSALKNSLADPNKVLQSWDAFLVTPCTWFHVTCNSDNSVTRVDLGNANLSGQLVMQLGQLPNLQYLELYSNNITGTIPEQLGNLTELVSLDLYLNNLSGPIPSTLGRLKKLRFLRLNNNSLSGEIPRSLTAVLTLQVLDLSNNPLTGDIPVNGSFSLFTPISFANTKLTPLPASPPPPISPTPPSPAGSNRITG
B3: CDKN1B 25-93 Y74E/Y88E/Y89E (Homo sapiens, UniProt P46527); sequence looked up; chain KPSACRNLFGPVDHEELTRDLEKHCRDMEEASQRKWNFDFQNHKPLEGKEEWQEVEKGSLPEFEERPPR
B4: SEC72 (Saccharomyces cerevisiae, UniProt P39742); lysines PEGylated; sequence looked up; chain MVTLEYNANSKLITASDAVVALSTETNIDQINVLTTSLIGETNPNFTPQPNEALSKMIKGLFESGMKNLQQKKLNEALKNVSLAIEMAQRKRAPWEAFAIQLPELHFMLRSKIDLCLILGKHLEALQDLDFLLGTGLIQPDVFVRKADCLLKLRQWEEARATCERGLALAPEDMKLRALLIETARNLAEYNGE
Chain of UniProt Q9UQ84 (whole entry, looked up): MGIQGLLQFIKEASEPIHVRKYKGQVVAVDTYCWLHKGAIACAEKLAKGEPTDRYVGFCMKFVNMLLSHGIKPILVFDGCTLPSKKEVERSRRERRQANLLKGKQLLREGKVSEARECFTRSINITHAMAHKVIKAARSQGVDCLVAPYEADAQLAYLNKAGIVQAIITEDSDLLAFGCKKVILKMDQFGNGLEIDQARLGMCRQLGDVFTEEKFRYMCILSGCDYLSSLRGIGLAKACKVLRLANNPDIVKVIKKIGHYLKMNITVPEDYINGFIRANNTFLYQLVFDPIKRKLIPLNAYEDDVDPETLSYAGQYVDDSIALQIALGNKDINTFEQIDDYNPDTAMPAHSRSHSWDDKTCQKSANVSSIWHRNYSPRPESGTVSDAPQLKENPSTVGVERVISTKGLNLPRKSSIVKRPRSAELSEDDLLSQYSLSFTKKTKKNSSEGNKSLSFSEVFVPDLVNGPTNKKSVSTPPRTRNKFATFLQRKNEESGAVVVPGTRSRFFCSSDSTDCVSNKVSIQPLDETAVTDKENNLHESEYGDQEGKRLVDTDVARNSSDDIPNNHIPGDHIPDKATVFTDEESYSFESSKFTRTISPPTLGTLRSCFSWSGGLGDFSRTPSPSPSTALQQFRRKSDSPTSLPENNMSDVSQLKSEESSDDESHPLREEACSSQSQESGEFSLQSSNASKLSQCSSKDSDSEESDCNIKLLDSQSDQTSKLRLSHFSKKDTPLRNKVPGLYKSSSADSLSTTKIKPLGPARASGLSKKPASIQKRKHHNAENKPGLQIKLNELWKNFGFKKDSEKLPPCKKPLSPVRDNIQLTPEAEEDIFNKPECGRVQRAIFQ
Chain of UniProt Q02410 (whole entry, unmodified, looked up): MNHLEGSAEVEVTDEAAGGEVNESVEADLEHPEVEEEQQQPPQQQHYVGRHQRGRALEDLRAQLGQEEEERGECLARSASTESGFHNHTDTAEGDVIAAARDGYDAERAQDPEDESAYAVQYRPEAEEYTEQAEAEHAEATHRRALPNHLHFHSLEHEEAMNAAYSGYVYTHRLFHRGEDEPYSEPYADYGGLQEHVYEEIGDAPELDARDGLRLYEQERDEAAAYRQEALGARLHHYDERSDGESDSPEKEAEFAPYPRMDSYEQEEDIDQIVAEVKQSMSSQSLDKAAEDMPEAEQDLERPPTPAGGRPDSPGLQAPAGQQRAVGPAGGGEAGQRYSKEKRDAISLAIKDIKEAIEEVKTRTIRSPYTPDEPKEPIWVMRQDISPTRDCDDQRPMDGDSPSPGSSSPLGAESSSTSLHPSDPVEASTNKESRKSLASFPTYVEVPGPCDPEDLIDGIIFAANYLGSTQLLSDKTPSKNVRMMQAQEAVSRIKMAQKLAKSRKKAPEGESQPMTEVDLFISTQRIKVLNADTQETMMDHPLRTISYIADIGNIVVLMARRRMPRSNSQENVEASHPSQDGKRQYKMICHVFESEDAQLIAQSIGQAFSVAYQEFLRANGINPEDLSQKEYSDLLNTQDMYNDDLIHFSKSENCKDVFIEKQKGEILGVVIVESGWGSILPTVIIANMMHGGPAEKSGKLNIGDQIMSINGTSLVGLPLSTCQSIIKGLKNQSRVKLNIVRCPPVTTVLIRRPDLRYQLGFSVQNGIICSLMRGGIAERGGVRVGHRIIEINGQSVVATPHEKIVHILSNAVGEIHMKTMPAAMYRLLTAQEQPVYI
Chain of UniProt P33754 (whole entry, looked up): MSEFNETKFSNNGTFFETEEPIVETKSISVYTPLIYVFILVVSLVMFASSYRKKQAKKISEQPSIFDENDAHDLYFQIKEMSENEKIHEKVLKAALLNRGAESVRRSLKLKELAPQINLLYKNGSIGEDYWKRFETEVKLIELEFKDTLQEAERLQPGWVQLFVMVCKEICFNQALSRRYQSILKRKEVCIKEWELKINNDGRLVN

Molecule	tested on	assay	system	setting	measurement	result
GDPGSEIIESVPPAGPEASESTTDENEDDIQFVSEGPLRPVLEYIDLVSSDDEEP (ZNF451 2-56 (Homo sapiens, UniProt Q9Y4E5))	SUMO2 15-93, isopeptide to RANGAP1 (Homo sapiens, UniProt P61956)	crystal structure			binding	binds
RBM8A fragment (Homo sapiens) (sequence not shown)	DCP2 (Homo sapiens, UniProt Q8IU60)	pull-down			binding	binds
GYSEVNLSKLFAGCAVKS (POLA1 residues 1445-1462, GST fusion (Homo sapiens))	PRIM1/PRIM2 PRIM1 1-420, PRIM2 1-462 K72A/M73A (Homo sapiens)	pull-down	peptide	2 h, pH 7.0, 4 °C	binding	binds
GHLSESSQVRWL (designed peptide)	APBA1 PDZ-1 648-746 C654S/C742S (UniProt Q02410)	ELISA	peptide	1 hour	binding	binds
B1 (UGT1A9)	COc1cc(-c2oc3cc(O)cc(O)c3c(=O)c2O)cc(OC)c1O	steady-state kinetics		pH 7.4, 37 °C	Km	0.98 µM and 1.61 µM
B2 (BAK1 26-225 T52F)	HAESA/IDA HAESA ectodomain; IDA 15-621, hydroxyproline in IDA (Arabidopsis thaliana)	ITC		pH 5.0, 25 °C	binding	binds
EXO1 (Homo sapiens, UniProt Q9UQ84)	CTC1/STN1/TEN1 2-1217 K290E/R292E/R295E	pull-down			binding	binds
B3 (CDKN1B 25-93 Y74E/Y88E/Y89E)	CDK4 1-303 del45-47/G43E/G44E (Homo sapiens, UniProt P11802)	X-ray crystallography		pH 7.0, 22 °C	binding	binds
fluorescein-SPT[pS]PSY[pS]PTS (POLR2A CTD peptide consensus heptads, 11-aa; N-fluorescein, pS4, pS8; fluorescein = fluorescein label (fluorescent) on the peptide N-terminus; pS = N[C@@H](COP(=O)(O)O)C(=O)O)	Rngtt 227-567 R330A (Mus musculus, UniProt O55236)	fluorescence polarisation	peptide	pH 7.0, 23 °C	binding	binds
B4 (SEC72)	SEC66, glycosylated; lysines PEGylated (Saccharomyces cerevisiae, UniProt P33754)	cryo-EM			binding	binds

For quick reference, copied from above:
Molecule	tested on	assay	system	setting	measurement	result
GYSEVNLSKLFAGCAVKS (POLA1 residues 1445-1462, GST fusion (Homo sapiens))	PRIM1/PRIM2 PRIM1 1-420, PRIM2 1-462 K72A/M73A (Homo sapiens)	pull-down	peptide	2 h, pH 7.0, 4 °C	binding	binds
B4 (SEC72)	SEC66, glycosylated; lysines PEGylated (Saccharomyces cerevisiae, UniProt P33754)	cryo-EM			binding	binds
